# Results from different studies.
# Every numbered part comes from another study and shows a few of its results, in no order. Changes are numbered by the printed parent chain.

# Study 1 — target: CCNB3, cyclin fold, Cln2 fusion (human); technique: yeast growth competition, sequencing; matrix: yeast; notes: weak parent motif; reference: not given; direction: higher = stronger binding
# Parent: E2F1 docking peptide (human); PPVKRRLDLETDH; partner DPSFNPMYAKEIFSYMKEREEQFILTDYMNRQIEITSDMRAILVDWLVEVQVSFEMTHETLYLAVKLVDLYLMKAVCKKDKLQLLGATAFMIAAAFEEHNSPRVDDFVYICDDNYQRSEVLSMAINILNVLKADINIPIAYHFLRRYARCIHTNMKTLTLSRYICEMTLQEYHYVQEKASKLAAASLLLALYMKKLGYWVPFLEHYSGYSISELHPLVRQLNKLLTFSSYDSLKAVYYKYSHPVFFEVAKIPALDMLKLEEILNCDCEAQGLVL
Variant,normalised enrichment score
L7I,0.246
K4D,0.297
V3W,0.066
P1K,0.569
D8P,0.134
V3M,0.0432
D8G,0.671
D12R,0.306
D12K,0.854
K4M,0.673
D8V,0.55
D12I,0.132
E10C,0.143
D12Q,0.547

# Study 2 — technique: RNA Bind-n-Seq; molecule type: RNA; matrix: in vitro; tested at: 365 nM; reference: no-protein control; direction: higher = stronger binding
# Target: RNA binding protein fox-1 homolog 2, RRM domain, GST-SBP tag (RBFOX2, Homo sapiens, UniProt O43251-10, residues 100-194)
# Notes: natural RNA segment, single round, ends assumed
# All sequences stand within: GGGAGUUCUACAGUCCGACGAUC … UGGAAUUCUCGGGUGCCAA
# Residues (chain): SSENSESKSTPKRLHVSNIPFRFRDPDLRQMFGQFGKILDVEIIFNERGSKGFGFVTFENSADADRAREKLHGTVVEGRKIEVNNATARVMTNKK
Oligonucleotide,RBNS enrichment (R)
GGUGGCUGUUUAUUCUCUCUAACCAGCUCUGUUAGAUAUUUCCUCUAAUCAAGCUAAUUGGUUACUGAAAUGACAUAUUUAUCCCAACUUCUGUACCUUUGCACAAACUC,1.15
CUUAUACAUUCCUGUACAGAAAUUACGAUUUUGUGAUUACAGUAAUAAAAUGAUAUUCCUUGUGAAAUAUUAGUAACAAAUUAUUUGGGUAUUUAAACAUUAGGAAUCUU,0.386
UGAAUGGGAGCCUCAGGCAUGAUGUGCAGAAAUAGCCUUCUACACCAGGCAGGGACAGGUUGCCUGUGGCCCCCUCAAUCUGAGGUGCACCCCUUGGGCUAUGGACCCCA,0.651
UCCAUCGGCCGAAACUUUCCCAAGCCAGGGUGUGCGGAGCUUCCCUGUACUGCAGCCAAGGUGACGUGUGACUUGGAUUUGAGUGGAGUUGGGCUUAGCCUUAGUCUCAU,0.55
GAACUGUAAAUCUGUUGCCCAAUCUUAACAUUUUUGAGCUGCAUUUAAGUAGACUUUGGACCGUUAAGCUGGGCAAAGGAAAUGACAAGGGGACGGGGUCUGUGAGAGUC,0.464
GAAAAGGAUCAUGAAACCUGAGAAAUGCUAAUGGAGAUUUGCUGGUACAUAGGAAUCUAGCAAAUUCAGGAACCAAGGGGAAAUGUUGUGAGAUAACAUUUACAUUGUCA,0.91
GCUGAGAGCUUUUAGAACAAGCAGGCAUUUAUUUAAUGUUUCCUUAGUCCAUUGGCAAGCUUUAUCAAUAGCUUAAUGGCAGAGGAUAAAGGCUCAAACAGAUGAUGUUU,0.277
AGACCCGUUUGAUAGUACUUUCAGUUUUUGGCAUUUGGGGUACUUUGAAAUCCAACUUGUUUUUAAAUUCCAUGUUGGUGCCAUAGAUGUAGUUUUUACAGCCUGAAAAU,0.395

# Study 3 — technique: protein-binding microarray; molecule type: double-stranded DNA, one strand shown; matrix: in vitro; tested at: 2540 nM top; notes: 60-bp whole probe; with: salmon DNA 0.4 mg/ml; reference: random background probes; direction: higher = stronger binding; all sequences stand within: GCCTAGCAC … GTCTTGATTCGCTTGACGCTGCTG
# Target: Interferon regulatory factor 3, full length, phosphomimetic (IRF3, Homo sapiens, UniProt Q14653, residues 1-427, S386D/S396D/S398D/S402D/T404D/S405D)
# Construct (chain): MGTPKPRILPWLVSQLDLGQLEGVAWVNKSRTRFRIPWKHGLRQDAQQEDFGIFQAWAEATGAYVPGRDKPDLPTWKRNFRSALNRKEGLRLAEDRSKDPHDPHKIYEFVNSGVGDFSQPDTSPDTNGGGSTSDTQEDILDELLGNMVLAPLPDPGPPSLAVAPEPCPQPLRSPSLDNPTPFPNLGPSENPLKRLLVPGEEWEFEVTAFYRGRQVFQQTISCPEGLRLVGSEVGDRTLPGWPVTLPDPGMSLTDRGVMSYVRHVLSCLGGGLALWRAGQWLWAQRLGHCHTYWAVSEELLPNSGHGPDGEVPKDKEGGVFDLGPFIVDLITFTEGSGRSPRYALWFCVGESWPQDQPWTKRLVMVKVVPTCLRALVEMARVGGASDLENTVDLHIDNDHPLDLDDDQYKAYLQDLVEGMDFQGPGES
Oligonucleotide,fitted relative affinity [z-score]
GTCACTCTCAGAATCTCTCAGTGCTAG,0.876
TATTTTTTTGTAATCGAAATGTGCTAG,0.918
GACGGTTTCGGCTCCGGGACGTGCTAG,3.19
GACGGTATCGGAACTGGGGACGTGCTA,3.53
TGTCTTCCCCATCTTGTTCCGTGCTAG,1.55
TGAAATTTTAGTAACACAGAGTGCTAG,-0.044
TTACGTTTCCTTTCCCTTTAGTGCTAG,9.56
GACGATATCAGACTGTAGACGTGCTAG,0.201
GACGGGATCGACTATCGGGACGTGCTA,-0.123
GACGGTAGCGGTCTCGGGACGTGCTAG,0.0552
TTAGGTCTCGGTATCAGTTAGTGCTAG,1.73
TTAGATTTCAGACTTGATTAGTGCTAG,1.18
GACGGTCTCGGACGGGGGACGTGCTAG,-0.00685
TTAGGACTGGACTTTGGGTTAGTGCTA,-0.9
TTAGAGATCGGGTATCGATTAGTGCTA,0.169
GACGGTATCGACTATCGGGAGGTGCTA,0.644
CTCATTCTCCACTTGTGTTTGTGCTAG,2.23
GACGGACTGCTTATCCTGATGTGCTAG,-0.302
TCATATATTATATATTTAACTGTGCTA,0.476

# Study 4 — technique: RNA Bind-n-Seq; molecule type: RNA; matrix: in vitro; tested at: not given; reference: input RNA pool; direction: higher = stronger binding
# Target: RING finger protein unkempt homolog, zinc fingers 1-6, GST-SBP tag (UNK, Homo sapiens, UniProt Q9C0B0, residues 30-357)
# UniProt Q9C0B0, sequence (30-357, looked up): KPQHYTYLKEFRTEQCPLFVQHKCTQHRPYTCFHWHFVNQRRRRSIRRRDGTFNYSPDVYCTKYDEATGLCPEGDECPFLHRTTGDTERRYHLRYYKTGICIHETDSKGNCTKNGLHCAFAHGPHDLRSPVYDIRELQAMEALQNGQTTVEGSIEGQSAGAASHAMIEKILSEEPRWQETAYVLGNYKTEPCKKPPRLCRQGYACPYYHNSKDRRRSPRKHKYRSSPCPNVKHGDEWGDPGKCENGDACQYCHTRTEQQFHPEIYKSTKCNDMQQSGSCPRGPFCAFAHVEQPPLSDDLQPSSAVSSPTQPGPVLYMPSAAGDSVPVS
# Notes: RNA with constant flanks, human-mouse chimeric sites, ends assumed
# All sequences stand within: GGGAGUUCUACAGUCCGACGAUC … CAACAGAGGAUUGAGCAUCA
Oligonucleotide,bound/input enrichment [ratio]
UAAAUUAGGGCUGCCGUUUUCUGUUUCUCCCUGGGCUGCGGAAAGCCAGAAGAUUUUAUCUAGCUUAUACAAGGCUGCUGGUGUUCCCUCUUUUUUUCCCUCUCUCUUUUUUUUCCAGCA,1.14
AACUUUGUGCAUCGGUUUCCCUUUGUAGCUGUUUCAAUUGGCUUCCUUGUGAAUAAAGAGAUGGAGUUUGGAAUUGUGUACAGCUGUGUGGAAGGCAAGAUGUACACCGGCAGGAAAGGG,0.282
AAAUCGUGUGUGUCCAAUAUUGAAAGUGCUUUAUCUACACUCCAAUAUGUAAGCAGUAUAGUAGUUUCUUUAGAGAAUAGGUCAGCCAUUGUAAAGUAUAAUGCAAGCUUAGUCACUCCA,13
UCAGUCUUUUUGUACAGCUUUGUAAAUUCUUAACAUUUUUAUAUUGCCAUGUUUAUUUUGUUUGGGUAAUUUGGUUCAUACAUGGCCUAGCUAAGGUAAUGAACAUCUUUUUCAGUAAUU,1.14
GUCAACAGUUGUCUCAACCCCAUCCUCUAUGCUUUCUUGGAUGAGAACUUCAAGGCCUGCUUCCGCAAGUUCUGCUGUGCAUCUGCCCUGCGCCGGGACGUGCAGGUGUCUGACCGCGUG,0.371
AUUGUUGAAGCGAAUCCACUUUUAGAAGCAUUUGGAAAUGCGAAGACUGUUCGCAACAAUAAUAGCAGUCGAUUUGGAAAAUUUGUAGAAAUUCAUUUCAAUGAAAAGAGUUCGGUUGUU,0.346
GAGUCGAGCAAACUUGAAACUACAGAAUUUACAAAAACCUCAGUGUUCACUUGCUUGGCGAUAGCAUUGGGGUUUUAUAGGUUCUGGAAGGAGAACUGACGAUGAUGCUGCCGCUGCUGC,0.188
GUCAACAGCUGCCUCAACCCCAUCCUCUAUGCUUUCUUGGAUGAGAACUUCAAGGCCUGCUUCCGCAAGUUCUGCUGUGCAUCUGCCCUGCACCGGGACGUGCAGGUGUCUGACCGCGUG,0.378

# A few entries again (study 3):
Oligonucleotide,fitted relative affinity [z-score]
TCATATATTATATATTTAACTGTGCTA,0.476
GACGGGATCGACTATCGGGACGTGCTA,-0.123
GACGGTAGCGGTCTCGGGACGTGCTAG,0.0552
GACGGTATCGACTATCGGGAGGTGCTA,0.644
GACGATATCAGACTGTAGACGTGCTAG,0.201
TGTCTTCCCCATCTTGTTCCGTGCTAG,1.55
TTAGGTCTCGGTATCAGTTAGTGCTAG,1.73
